Experimental data pooled from the literature.
Each line is one published result; not all experiments were run side by side.
B1: NCBP2 (Homo sapiens, UniProt P52298); chain MSGGLLKALRSDSYVELSQYRDQHFRGDNEEQEKLLKKSCTLYVGNLSFYTTEEQIYELFSKSGDIKKIIMGLDKMKKTACGFCFVEYYSRADAENAMRYINGTRLDDRIIRTDWDAGFKEGRQYGRGRSGGQVRDEYRQDYDAGRGGYGKLAQNQ
B2: NR1I3 105-348 (Homo sapiens, UniProt Q14994-2); sequence looked up; chain QLSKEQEELIRTLLGAHTRHMGTMFEQFVQFRPPAHLFIHHQPLPTLAPVLPLVTHFADINTFMVLQVIKFTKDLPVFRSLPIEDQISLLKGAAVEICHIVLNTTFCLQTQNFLCGPLRYTIEDGARVGFQVEFLELLFHFHGTLRKLQLQEPEYVLLAAMALFSPDRPGVTQRDEIDQLQEEMALTLQSYIKGQQRRPRDRFLYAKLLGLLAELRSINEAYGYQIQHIQGLSAMMPLLQEICS
B3: Il2 Y59K (Mus musculus, UniProt P04351); chain APTSSSTSSSTAEAQQQQQQQQQQQQHLEQLLMDLQELLSRMENYRNLKLPRMLTFKFKLPKQATELKDLQCLEDELGPLRHVLDLTQSKSFQLEDAENFISNIRVTVVKLKGSDNTFECQFDDESATVVDFLRRWIAFCQSIISTSPQ
B4: erenumab; V domains shown; sequence looked up; VH QVQLVESGGGVVQPGRSLRLSCAASGFTFSSFGMHWVRQAPGKGLEWVAVISFDGSIKYSVDSVKGRFTISRDNSKNTLFLQMNSLRAEDTAVYYCARDRLNYYDSSGYYHYKYYGMAVWGQGTTVTVSS; VL QSVLTQPPSVSAAPGQKVTISCSGSSSNIGNNYVSWYQQLPGTAPKLLIYDNNKRPSGIPDRFSGSKSGTSTTLGITGLQTGDEADYYCGTWDSRLSAVVFGGGTKLTVL
Chain of UniProt Q9WU72 (whole entry, looked up): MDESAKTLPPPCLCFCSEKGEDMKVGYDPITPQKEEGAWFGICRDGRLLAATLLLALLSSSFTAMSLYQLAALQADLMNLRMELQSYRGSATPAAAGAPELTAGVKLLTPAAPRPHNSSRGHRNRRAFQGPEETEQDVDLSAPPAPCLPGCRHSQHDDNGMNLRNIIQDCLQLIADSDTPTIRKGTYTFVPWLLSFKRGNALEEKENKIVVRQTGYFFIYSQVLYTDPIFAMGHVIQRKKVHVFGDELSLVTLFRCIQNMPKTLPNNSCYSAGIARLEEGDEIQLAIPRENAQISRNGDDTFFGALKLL
Chain of UniProt P01590 (whole entry, looked up): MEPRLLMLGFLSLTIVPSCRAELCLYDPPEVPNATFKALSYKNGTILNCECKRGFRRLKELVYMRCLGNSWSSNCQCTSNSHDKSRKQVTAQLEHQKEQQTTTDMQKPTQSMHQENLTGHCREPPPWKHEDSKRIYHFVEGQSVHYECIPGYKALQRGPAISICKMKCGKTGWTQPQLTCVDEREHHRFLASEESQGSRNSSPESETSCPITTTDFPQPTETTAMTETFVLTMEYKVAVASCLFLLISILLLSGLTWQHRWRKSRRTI
Chain of UniProt Q6RVA9 (whole entry, looked up): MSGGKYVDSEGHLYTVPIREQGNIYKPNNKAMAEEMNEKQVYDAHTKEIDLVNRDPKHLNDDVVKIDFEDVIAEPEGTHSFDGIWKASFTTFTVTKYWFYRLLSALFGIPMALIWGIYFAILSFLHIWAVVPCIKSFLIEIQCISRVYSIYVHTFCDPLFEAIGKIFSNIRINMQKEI
Chain of UniProt P39615 (whole entry, looked up): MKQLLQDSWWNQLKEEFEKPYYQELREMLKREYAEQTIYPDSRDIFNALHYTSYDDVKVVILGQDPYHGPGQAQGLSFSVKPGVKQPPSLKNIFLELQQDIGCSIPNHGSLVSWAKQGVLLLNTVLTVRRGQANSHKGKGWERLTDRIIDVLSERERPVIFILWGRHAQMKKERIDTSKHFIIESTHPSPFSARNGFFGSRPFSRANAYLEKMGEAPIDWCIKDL
Chain of UniProt Q15648 (whole entry, looked up): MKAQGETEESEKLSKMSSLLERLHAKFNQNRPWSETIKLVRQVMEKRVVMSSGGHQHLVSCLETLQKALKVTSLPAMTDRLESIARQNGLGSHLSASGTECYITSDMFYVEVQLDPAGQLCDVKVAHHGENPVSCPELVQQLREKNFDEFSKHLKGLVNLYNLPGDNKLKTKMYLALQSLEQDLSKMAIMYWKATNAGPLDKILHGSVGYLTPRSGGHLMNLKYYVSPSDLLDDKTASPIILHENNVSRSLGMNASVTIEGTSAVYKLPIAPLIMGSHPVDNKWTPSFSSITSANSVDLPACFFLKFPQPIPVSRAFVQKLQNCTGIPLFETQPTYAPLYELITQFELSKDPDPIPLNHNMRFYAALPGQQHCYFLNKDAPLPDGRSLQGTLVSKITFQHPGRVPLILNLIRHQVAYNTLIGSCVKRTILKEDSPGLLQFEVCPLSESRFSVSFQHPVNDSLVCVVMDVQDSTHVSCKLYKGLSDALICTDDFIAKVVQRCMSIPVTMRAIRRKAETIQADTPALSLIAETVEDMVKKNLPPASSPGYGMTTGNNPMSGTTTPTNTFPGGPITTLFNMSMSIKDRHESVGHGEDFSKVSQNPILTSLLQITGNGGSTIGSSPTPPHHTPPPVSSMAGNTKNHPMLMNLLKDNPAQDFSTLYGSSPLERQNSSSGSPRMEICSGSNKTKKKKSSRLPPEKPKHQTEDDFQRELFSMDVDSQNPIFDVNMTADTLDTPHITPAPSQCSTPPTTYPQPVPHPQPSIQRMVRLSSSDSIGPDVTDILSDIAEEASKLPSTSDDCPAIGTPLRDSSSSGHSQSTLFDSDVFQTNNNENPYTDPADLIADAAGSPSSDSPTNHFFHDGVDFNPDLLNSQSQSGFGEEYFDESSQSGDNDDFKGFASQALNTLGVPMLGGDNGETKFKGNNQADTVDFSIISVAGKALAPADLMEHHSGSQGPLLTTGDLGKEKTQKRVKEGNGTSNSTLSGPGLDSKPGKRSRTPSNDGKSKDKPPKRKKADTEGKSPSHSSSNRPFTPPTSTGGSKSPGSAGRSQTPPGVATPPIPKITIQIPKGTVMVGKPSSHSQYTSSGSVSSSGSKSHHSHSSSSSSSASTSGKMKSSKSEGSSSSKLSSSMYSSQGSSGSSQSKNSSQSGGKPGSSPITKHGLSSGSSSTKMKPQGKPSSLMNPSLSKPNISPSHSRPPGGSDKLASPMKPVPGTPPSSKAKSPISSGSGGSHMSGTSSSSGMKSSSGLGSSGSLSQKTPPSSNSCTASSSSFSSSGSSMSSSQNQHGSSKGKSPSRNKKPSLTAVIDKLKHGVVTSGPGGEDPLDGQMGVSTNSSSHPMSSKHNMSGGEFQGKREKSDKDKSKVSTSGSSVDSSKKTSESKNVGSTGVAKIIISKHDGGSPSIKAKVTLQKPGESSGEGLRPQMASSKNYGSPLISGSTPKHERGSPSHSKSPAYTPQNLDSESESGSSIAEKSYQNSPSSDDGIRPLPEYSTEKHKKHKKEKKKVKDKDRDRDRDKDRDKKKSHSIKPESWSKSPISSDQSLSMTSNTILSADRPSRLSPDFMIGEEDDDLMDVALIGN
Chain of UniProt Q09161 (whole entry, unmodified, looked up): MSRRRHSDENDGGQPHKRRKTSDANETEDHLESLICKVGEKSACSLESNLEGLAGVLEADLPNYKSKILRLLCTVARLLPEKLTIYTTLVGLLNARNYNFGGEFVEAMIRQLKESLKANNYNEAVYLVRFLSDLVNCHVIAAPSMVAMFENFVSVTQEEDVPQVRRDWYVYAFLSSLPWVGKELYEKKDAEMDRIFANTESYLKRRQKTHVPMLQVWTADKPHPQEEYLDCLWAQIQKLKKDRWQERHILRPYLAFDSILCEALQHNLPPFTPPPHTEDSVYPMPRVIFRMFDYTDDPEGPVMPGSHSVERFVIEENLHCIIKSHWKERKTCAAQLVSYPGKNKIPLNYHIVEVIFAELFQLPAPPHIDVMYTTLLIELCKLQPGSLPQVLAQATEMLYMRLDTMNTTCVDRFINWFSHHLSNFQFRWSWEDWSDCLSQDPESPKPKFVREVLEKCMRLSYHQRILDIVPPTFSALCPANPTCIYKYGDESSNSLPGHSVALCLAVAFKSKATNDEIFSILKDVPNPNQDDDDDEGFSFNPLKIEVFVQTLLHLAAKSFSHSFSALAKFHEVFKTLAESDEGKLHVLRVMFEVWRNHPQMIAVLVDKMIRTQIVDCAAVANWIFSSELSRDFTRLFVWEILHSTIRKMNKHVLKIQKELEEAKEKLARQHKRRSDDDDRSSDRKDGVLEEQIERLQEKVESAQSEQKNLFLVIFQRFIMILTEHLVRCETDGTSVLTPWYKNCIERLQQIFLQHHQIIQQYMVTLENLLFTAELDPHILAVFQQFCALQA
Chain of UniProt O60656 (whole entry, looked up): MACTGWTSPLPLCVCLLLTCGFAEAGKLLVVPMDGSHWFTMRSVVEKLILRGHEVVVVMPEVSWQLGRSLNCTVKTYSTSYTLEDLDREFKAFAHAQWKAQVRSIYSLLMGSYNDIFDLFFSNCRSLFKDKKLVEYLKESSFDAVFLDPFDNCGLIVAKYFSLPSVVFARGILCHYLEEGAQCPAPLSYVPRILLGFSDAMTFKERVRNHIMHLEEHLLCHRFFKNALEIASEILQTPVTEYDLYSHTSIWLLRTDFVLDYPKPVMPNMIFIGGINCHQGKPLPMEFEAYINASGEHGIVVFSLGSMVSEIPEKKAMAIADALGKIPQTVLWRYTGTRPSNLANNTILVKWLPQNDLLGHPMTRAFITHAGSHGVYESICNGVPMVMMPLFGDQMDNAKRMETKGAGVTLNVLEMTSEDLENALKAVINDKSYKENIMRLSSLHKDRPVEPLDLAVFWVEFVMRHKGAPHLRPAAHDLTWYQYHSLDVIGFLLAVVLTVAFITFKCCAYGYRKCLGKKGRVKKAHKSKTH
Chain of UniProt P07949 (whole entry, looked up): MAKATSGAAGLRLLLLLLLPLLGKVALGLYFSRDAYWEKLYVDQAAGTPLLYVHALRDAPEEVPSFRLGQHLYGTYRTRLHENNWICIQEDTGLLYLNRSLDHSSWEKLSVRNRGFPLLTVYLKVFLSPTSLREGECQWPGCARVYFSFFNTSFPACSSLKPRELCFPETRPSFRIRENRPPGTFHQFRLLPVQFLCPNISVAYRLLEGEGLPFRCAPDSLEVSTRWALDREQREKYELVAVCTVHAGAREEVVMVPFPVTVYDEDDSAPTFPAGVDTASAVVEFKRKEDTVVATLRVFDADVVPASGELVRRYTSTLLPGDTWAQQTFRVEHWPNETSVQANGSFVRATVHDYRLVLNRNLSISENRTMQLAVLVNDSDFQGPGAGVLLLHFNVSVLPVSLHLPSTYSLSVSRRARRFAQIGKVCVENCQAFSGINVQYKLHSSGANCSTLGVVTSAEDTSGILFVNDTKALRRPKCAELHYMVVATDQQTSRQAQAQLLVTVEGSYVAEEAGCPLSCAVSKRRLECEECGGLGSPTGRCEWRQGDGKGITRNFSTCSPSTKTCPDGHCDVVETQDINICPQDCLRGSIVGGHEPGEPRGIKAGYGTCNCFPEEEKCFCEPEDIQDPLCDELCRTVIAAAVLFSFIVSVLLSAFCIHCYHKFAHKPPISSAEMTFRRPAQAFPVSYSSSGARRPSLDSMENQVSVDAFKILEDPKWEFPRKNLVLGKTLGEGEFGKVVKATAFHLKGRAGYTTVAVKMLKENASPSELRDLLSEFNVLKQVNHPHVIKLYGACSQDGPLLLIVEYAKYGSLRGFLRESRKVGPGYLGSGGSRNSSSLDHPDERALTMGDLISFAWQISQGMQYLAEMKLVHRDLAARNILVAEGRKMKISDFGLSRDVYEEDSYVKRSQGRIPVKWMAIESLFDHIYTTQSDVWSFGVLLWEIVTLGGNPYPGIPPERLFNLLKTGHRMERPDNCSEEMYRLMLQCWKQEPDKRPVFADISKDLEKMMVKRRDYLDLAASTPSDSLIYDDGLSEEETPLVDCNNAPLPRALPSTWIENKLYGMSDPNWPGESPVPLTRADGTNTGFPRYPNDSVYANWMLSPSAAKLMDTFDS

| Molecule | tested on | test | test system | setting | how to read | endpoint | result |
| --- | --- | --- | --- | --- | --- | --- | --- |
| UGT1A9 (Homo sapiens, UniProt O60656) | O=c1cc(-c2ccc(O)cc2)oc2ccccc12 | steady-state kinetics | – | pH 7.4, 37 °C | – | Km | 1.46 µM |
| RRRRRRC / CGSFPPWVKKTEV (peptide; cyclic, disulfide-linked poly-Arg) | DLG4 309-422 (Homo sapiens, UniProt P78352) | SPR | peptide | – | – | koff | 0.0732 s⁻¹ |
| B1 (NCBP2) | NCBP1 (Homo sapiens, UniProt Q09161) | crystal structure | – | – | – | binding | binds |
| B2 (NR1I3 105-348) | MED1 527-774 (Homo sapiens, UniProt Q15648) | two-hybrid | COS1 | – | relative to: empty VP16-AD, higher = more interaction | activation factor | 100 fold |
| TPDYLMQLMNDKKLMSSLPNFSGAFNHLERLLDEEISRVRKDMYNDTLNGSTEK (Qki 14-67 C35S/I37A (Mus musculus, UniProt Q9QYS9)) | itself | CD thermal melting | – | 50 µM | – | melting temperature | 67 °C |
| BDNF mature (Homo sapiens) | NTRK2 extracellular and transmembrane domains (Homo sapiens) | FRET | – | 380 nM | relative to: without ligand, higher = more stable dimer | dimer stability change | -2.65 kcal/mol |
| dulaglutide Fc fusion | GLP1R (Homo sapiens, UniProt P43220) | cAMP-driven luciferase, agonist | – | – | – | EC50 | 6.66 pM |
| B3 (Il2 Y59K) | Il2ra (Mus musculus, UniProt P01590) | flow cytometry | mouse splenocytes | – | relative to: wildtype IL2, higher = greater reduction | pSTAT5+ Tregs | > 300 fold |
| Atp1a1 F97A/F100A (Rattus norvegicus) | CAV1 (Sus scrofa, UniProt Q6RVA9) | co-IP | AAC-19, lysate | – | relative to: AAC-19 cells, higher = greater decrease | coprecipitated α1 | > 80% |
| CALM1 holo (Homo sapiens, UniProt P0DP23) | Nos1 (Rattus norvegicus, UniProt P29476) | optical stopped-flow | – | CaM not pre-bound, with: NADPH, holo CaM | – | heme reduction rate | 18.2 s⁻¹ |
| TNFRSF17/IgG1 Fc fusion extracellular (Homo sapiens) | Tnfsf13b 127-309 (Mus musculus, UniProt Q9WU72) | B cell population in spleen | – | – | relative to: control Ig, higher = more B cells | B220+ B cell population | 50% |
| NRTN fragment (Homo sapiens) | RET 29-635 (Homo sapiens, UniProt P07949) | MAPK signaling, SRE luciferase reporter, agonist | TGW neuroblastoma | – | – | EC50 | 2.1 ng/mL |
| MVQNDFVDSYDVTMLLQDDDGKQYYEYHKGLSLSDWEVLYGNTADEIIKLRLDKVL (p56 1-56 F36W (Bacillus phage phi29, UniProt Q38503)) | ung 1-225 (Bacillus subtilis, UniProt P39615) | ssDNA-U16 cleavage | – | – | relative to: wild-type p56, higher = greater decrease in inhibition | inhibition of uracil excision | 3 fold |
| B4 (erenumab) | CALCR/RAMP1 on cells (Homo sapiens) | cAMP production, antagonist | antibody, HEK293S | no preincubation, with: αCGRP 3 nM | – | pIC50 | 5.77 |

A few entries again:
| Molecule | tested on | test | test system | setting | how to read | endpoint | result |
| --- | --- | --- | --- | --- | --- | --- | --- |
| TPDYLMQLMNDKKLMSSLPNFSGAFNHLERLLDEEISRVRKDMYNDTLNGSTEK (Qki 14-67 C35S/I37A (Mus musculus, UniProt Q9QYS9)) | itself | CD thermal melting | – | 50 µM | – | melting temperature | 67 °C |
| BDNF mature (Homo sapiens) | NTRK2 extracellular and transmembrane domains (Homo sapiens) | FRET | – | 380 nM | relative to: without ligand, higher = more stable dimer | dimer stability change | -2.65 kcal/mol |
